{"data": "Experimental data from different studies", "target": "Cytochrome P450 3A4 (CYP3A4, Homo sapiens, UniProt P08684)", "mode": "inhibitor", "note": "Numbers after ± are the reported error.", "UniProt P08684, sequence (whole entry, looked up)": "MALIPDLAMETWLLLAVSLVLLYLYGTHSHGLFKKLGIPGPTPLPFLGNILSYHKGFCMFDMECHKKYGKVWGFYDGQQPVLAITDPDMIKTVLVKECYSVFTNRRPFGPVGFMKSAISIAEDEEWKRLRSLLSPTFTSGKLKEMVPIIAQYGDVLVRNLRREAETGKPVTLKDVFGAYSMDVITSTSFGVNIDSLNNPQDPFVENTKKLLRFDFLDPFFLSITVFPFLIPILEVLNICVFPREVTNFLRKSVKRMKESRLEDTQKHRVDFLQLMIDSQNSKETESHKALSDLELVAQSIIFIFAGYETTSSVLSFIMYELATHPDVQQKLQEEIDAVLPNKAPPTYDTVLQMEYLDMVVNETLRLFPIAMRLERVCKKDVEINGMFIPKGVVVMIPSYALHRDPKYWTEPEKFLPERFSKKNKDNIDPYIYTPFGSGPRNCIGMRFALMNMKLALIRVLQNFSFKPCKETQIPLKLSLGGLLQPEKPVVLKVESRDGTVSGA"}
{"SMILES": "CCc1nc(N)nc(N)c1C#CC(C)c1cc(-c2cc(C)nc(C)c2)ccc1Cl (stereo not drawn)", "assay": "enzyme activity, fluorescence", "setting": "30 min", "IC50": "43 µM"}
{"SMILES": "NC(=O)c1c(F)ccc(OCc2nc3cc(Cl)cnc3s2)c1F", "assay": "enzyme activity, fluorescence", "IC50": "> 33.7 µM"}
{"SMILES": "N=C(N)c1cccc(C[C@H](NS(=O)(=O)c2cccc(-c3cc(CO)ccc3Cl)c2)C(=O)N2CCC(CCNC(=O)NC3CCCCC3)CC2)c1", "assay": "enzyme activity", "setting": "testosterone probe", "IC50": "4.6 µM"}
{"SMILES": "CC(C)=CCC/C(C)=C/COc1c2ccoc2cc2oc(=O)ccc12", "setting": "30 min", "IC50": "12.9 ± 1.17 µM"}
{"SMILES": "COc1ccc(-c2cccc(S(=O)(=O)N[C@@H](Cc3cccc(C(=N)N)c3)C(=O)N3CCC(NC(=O)NC4CCCCC4)CC3)c2)c(OC)c1", "assay": "enzyme activity, fluorometric", "test system": "human liver microsomes", "setting": "15 min, 37 °C", "IC50": "0.21 ± 0.03 µM"}
{"SMILES": "CC1CCC2(OC1)OC1CC3C4CC=C5CC(OC6OC(CO)C(OC7OC(CO)C(O)C7O)C(O)C6OC6OC(C)C(O)C(O)C6O)CCC5(C)C4CCC3(C)C1(O)C2C (stereo not drawn)", "assay": "enzyme activity", "test system": "human, liver microsomes", "setting": "1 h, pH 7.4, testosterone probe", "IC50": "4.52 µM"}
{"SMILES": "COc1ccc(-c2cccc(S(=O)(=O)N[C@@H](Cc3cccc(C(=N)N)c3)C(=O)N3CCN(C(=O)NC4CCCCC4)CC3)c2)c(OC)c1", "assay": "enzyme activity, fluorometric", "test system": "human liver microsomes", "setting": "15 min, 37 °C", "IC50": "0.63 ± 0.04 µM"}
{"SMILES": "C[C@](C(=O)NC1CCOCC1)(c1cncnc1)N(C(=O)[C@H](F)Cl)c1ccc(OC(F)(F)Cl)cc1", "assay": "enzyme activity", "setting": "10 (unit not given)", "IC50": "> 50 µM"}
{"SMILES": "C[C@]1(O)CCCN(c2nc(Nc3ccc(S(=O)(=O)N[C@H]4CC[C@H](CN5CCN(c6ccc(C7CCC(=O)NC7=O)cc6F)CC5)CC4)cc3)ncc2C(F)(F)F)C1 (stereo partly drawn)", "assay": "time-dependent inhibition", "setting": "30 min preincubation, added: without NADPH", "IC50": "> 10 µM"}
{"SMILES": "COc1ccc2c(c1OCc1ccccc1)C[C@@H](C(=O)O)N(c1nc3ccc(C#N)cc3o1)C2", "assay": "enzyme activity", "test system": "human, liver microsomes", "setting": "15 min, pH 7.4, midazolam probe", "IC50": "> 50 µM"}
{"SMILES": "O=c1nc(NO)ccn1[C@@H]1O[C@H](CO)[C@@H](O)[C@H]1O", "assay": "enzyme activity", "test system": "human, liver microsomes", "setting": "10 min, pH 7.4, testosterone probe", "IC50": "> 100 µM"}
{"SMILES": "O=C(OCCCc1cc2c(cc1OCc1ccccc1)OCO2)c1ccccc1", "assay": "enzyme activity, fluorescence", "test system": "recombinant enzyme", "setting": "added: dibenzyl fluorescein substrate", "IC50": "5.8 µM"}
{"note": "Excerpt of the above:"}
{"SMILES": "COc1ccc(-c2cccc(S(=O)(=O)N[C@@H](Cc3cccc(C(=N)N)c3)C(=O)N3CCN(C(=O)NC4CCCCC4)CC3)c2)c(OC)c1", "assay": "enzyme activity, fluorometric", "test system": "human liver microsomes", "setting": "15 min, 37 °C", "IC50": "0.63 ± 0.04 µM"}
